Measured values from different studies.
Each line is one published result; not all experiments were run side by side. Several values in a cell are separate wells, animals, samples, runs or records. ± marks the error that the study gave.
UCHL1: Ubiquitin carboxyl-terminal hydrolase isozyme L1 (UCHL1, Homo sapiens, UniProt P09936)
Chain of UniProt P09936 (whole entry, looked up): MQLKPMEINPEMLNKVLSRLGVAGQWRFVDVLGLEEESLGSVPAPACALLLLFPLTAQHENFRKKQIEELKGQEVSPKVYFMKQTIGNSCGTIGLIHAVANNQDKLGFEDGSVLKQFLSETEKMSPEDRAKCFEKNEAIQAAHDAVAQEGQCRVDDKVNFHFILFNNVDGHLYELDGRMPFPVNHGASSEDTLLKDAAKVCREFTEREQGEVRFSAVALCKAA

c1cnc2c(c1)ccc1cccnc12  IL-10 mRNA level (HepG2; 25 µg/mL; reference: other treatment groups): increased
CNC(=S)NN=C(C)c1c(O)c2ccccc2oc1=O  selectivity index (HepG2; cell growth, MTT; reference: IC50 BJ-1 over HepG2): > 2.08
CC(=O)c1nn(-c2ccc(C)cc2)/c(=N/N=C(\C)c2ccc(NC(=O)c3ccccc3)cc2)s1  cytotoxicity (HepG2; MTT; 5 µM): 93.2%
COc1ccc(-n2nc(C(C)=O)s/c2=N\N=C(/C)c2ccc(NC(=O)c3ccccc3)cc2)cc1  toxicity (HepG2; 0.625 µM): 49.8%
CC(=O)Nc1ccc(/C(C)=N/N=c2\sc(C(C)=O)nn2-c2ccc(C)cc2)cc1  cytotoxicity (HepG2; MTT; 0.625 µM): 0.182%
CN(CCOc1ccc(CC2SC(=O)NC2=O)cc1)c1ccccn1 (stereo not drawn)  point of departure (HepG2; TMRE, refers to: mitochondrial membrane potential; 24 h, distribution mode 2): 56.2 µM
COc1ccc2c(c1)C(=O)C(=O)N2CCn1ncc2c(=O)[nH]cnc21  IC50 (HepG2; cell growth, SRB; 72 h): 31.9 ± 13.3 µg/mL
CC1=CC(=O)c2ccccc2C1=O  selectivity index (HepG2; MTT; reference: IC50 MRC-5 over IC50 HepG2): 2.43
CCC1=C(C)/C(=C/NC23C[C@H]4C[C@@H](C2)C[C@](C)(C4)C3)N=C1c1ccc(C)[nH]1  selectivity index (HepG2; reference: HepG2 IC50 over P. falciparum D6 IC50): 11500
CC(C)(C)c1cc(O)ccc1O  point of departure (HepG2; high content imaging, refers to: DNA structure; 24 h, representative mode): 138 µM
CCOC(=O)c1cccc(NC(=O)c2sccc2S(=O)(=O)N(C)c2ccc(OCC)c(OCC)c2)c1  EC50 (HepG2; SRE promoter reporter, activator, luciferase reporter): > 25 µM
Cc1nc2ccccc2n(CC(=O)Nc2ccc(C(=O)Nc3cccc(Cl)c3)cc2)c1=O  necrotic cells (HepG2; Annexin V-FITC/PI staining; 2.3 µM): 0.2 ± 0.04%
CCOC(=O)c1nn(-c2cccc(Cl)c2)/c(=N/N=C(\C)c2ccc(NC(=O)c3ccccc3)cc2)s1  cytotoxicity (HepG2; MTT; 0.625 µM): 96.8%
O=C(/C=C/c1cccc(S(=O)(=O)Nc2ccccc2)c1)NO  TNF-α mRNA level (HepG2; 25 µg/mL; reference: untreated): increased
CCCOc1nc(-c2cccc(O)c2)cc(-c2cc3ccccc3nc2N2CCOCC2)c1C#N  selectivity ratio (HepG2; MTT; reference: WI-38 EC50 over HepG2 IC50): 0.45
C#CC(C)(CC)NC(=O)C(C)n1nc([N+](=O)[O-])c(Br)c1C (stereo not drawn)  labelling (UCHL1; covalent, intact protein LC-MS; 12.5 µM): 17.2%
Nc1ccn([C@H]2CC[C@@H](CO)O2)c(=O)n1  mitochondrial DNA content (HepG2; qPCR; 20.0 µM, 10 days, 3; reference: untreated): 6.9 ± 2.9%
CC(=O)c1nn(-c2ccc(Cl)cc2)/c(=N/N=C(\C)c2ccc(NC(=O)c3ccc(Cl)cc3)cc2)s1  viability (HepG2; 2.5 µM): 92%
CC(=NN=c1sc(N=Nc2ccccc2)c(C)n1C)c1c(O)c2ccccc2oc1=O  selectivity index (HepG2; cell growth, MTT; reference: IC50 BJ-1 over HepG2): > 1.56
CCc1ccc(CCOc2ccc(CC3SC(=O)NC3=O)cc2)nc1 (stereo not drawn)  point of departure (HepG2; refers to: MTT reduction; 24 h, representative mode): 46.8 µM
CCOC(=O)c1cc(F)cc(NC(=O)c2sc(Cl)cc2S(=O)(=O)N(C)c2ccc(OCC)c(OC)c2)c1  EC50 (HepG2; SRE promoter reporter, activator, luciferase reporter): 0.13 µM
CC(=O)c1nn(-c2ccc(Cl)cc2)/c(=N/N=C(\C)c2ccc(NC(=O)c3ccc(C)cc3)cc2)s1  toxicity (HepG2; 0.078 µM): 20.9%
NC[C@H](OCC(=O)N1CCC[C@H](C(=O)NCc2nc(-c3ccc(C(F)(F)F)cc3)cs2)C1)c1ccccc1  EC50 (HepG2; cytotoxicity): ~20 µM
O=C1NC(=O)c2cc(NC(=O)N3CCSSCC3)ccc21  labelling (UCHL1; covalent, intact protein LC-MS; 12.5 µM): 13.1%
N#C[C@@]1(c2ccc3c(N)ncnn23)O[C@H](CO)[C@@H](O)[C@H]1O  mitochondrial DNA content (HepG2; qPCR; 10.0 µM, 10 days, 3; reference: untreated): 90.3 ± 21.9%
COc1ccc(NC(=O)c2c(Nc3ccccc3)sc(C#N)c2NC(=O)CNc2ccc(Cl)cc2)cc1  Bcl-2 level (HepG2; ELISA; IC50, 24 h): 408 ± 18.5 pg/mL
CCOC(=O)c1c(-c2ccc(OC)cc2)oc2ccc(OCc3cn(C[C@H]4O[C@H](O[C@H]5O[C@H](CO)[C@@H](O)[C@H](O)[C@H]5O)[C@H](O)[C@@H](O)[C@@H]4O)nn3)c(CN3CCCCC3)c12  IC50 (HepG2; cytotoxicity, resazurin; 18 h): > 200 µM
CCn1c(C)c(N=Nc2ccc(C)cc2)sc1=NN=C(C)c1c(O)c2ccccc2oc1=O  selectivity index (HepG2; cell growth, MTT; reference: IC50 BJ-1 over HepG2): > 1.22
COc1ccc(-n2nc(C(C)=O)s/c2=N\N=C(/C)c2ccc(NC(=O)c3ccc(Cl)cc3)cc2)cc1  toxicity (HepG2; 0.312 µM): 85.9%
NC(=O)NCCC[C@H](N)C(=O)O  IC50 (HepG2; cell viability, MTT; 24 h): > 10000 µM
COC(=O)[C@]12CCC(C)(C)C[C@H]1[C@H]1C(=O)C=C3[C@@]4(C)C=C(C#N)C(=O)C(C)(C)[C@@H]4CC[C@@]3(C)[C@]1(C)CC2  point of departure (HepG2; high content imaging, refers to: DNA structure; 24 h, distribution mode 1): 0.0437 µM
CCOc1nc(-c2cccc(O)c2)cc(-c2cc3ccccc3nc2N2CCOCC2)c1C#N  selectivity ratio (HepG2; MTT; reference: WI-38 EC50 over HepG2 IC50): 0.288
O=C(O)Cc1ccccc1Nc1c(Cl)cccc1Cl  point of departure (HepG2; refers to: HIF1alpha level; 6 h, mode 1 of PoD distribution): 32.4 µM
C[C@H]1O[C@@H](O[C@H]2CC[C@@]3(C)[C@@H](CC[C@]4(C)[C@@H]3C=CC3=C5CC(C)(C)CC[C@]5(CO)[C@@H](O)C[C@]34C)[C@]2(C)CO)[C@H](O)[C@@H](O[C@@H]2O[C@H](CO)[C@@H](O)[C@H](O)[C@H]2O)[C@H]1O  ROS level (HepG2; flow cytometry; concentration not given, high dose, added: ethanol; reference: control): 2.61 fold and 3.1 fold and 3.43 fold
COc1ccc(NC(=O)c2c(Nc3ccccc3)sc(C(=O)NN=Cc3ccc(OC)c(O)c3)c2NC(C)=O)cc1  cells in S phase (HepG2; flow cytometry; IC50, 24 h): 31.1 ± 2.93%
CCOC(=O)/C=C\C(=O)OCC  point of departure (HepG2; high content imaging, refers to: DNA structure; 24 h, distribution mode 2): 186 µM and 204 µM
O=C1C(=O)N(CCn2ncc3c(=O)[nH]cnc32)c2ccc(Cl)cc21  IC50 (HepG2; cell growth, SRB; 72 h): 5.31 ± 3.22 µg/mL
CC(=O)c1nn(-c2ccccc2Cl)/c(=N/N=C(\C)c2ccc(NC(=O)c3ccccc3)cc2)s1  cytotoxicity (HepG2; MTT; 5 µM): 93.9%
CC(=NN=c1[nH]c(C)cs1)c1c(O)c2ccccc2oc1=O  selectivity index (HepG2; cell growth, MTT; reference: IC50 BJ-1 over HepG2): > 2.35
CCOc1ccc(N(C)S(=O)(=O)c2ccsc2C(=O)Nc2cccc(C(=O)OC)c2)cc1  EC50 (HepG2; SRE promoter reporter, activator, luciferase reporter): > 25 µM
CCOC(=O)c1nn(-c2cccc(Cl)c2)/c(=N/N=C(\C)c2ccc(NC(=O)c3ccc(Cl)cc3)cc2)s1  cytotoxicity (HepG2; MTT; 10 µM): 96%
CCOC(=O)c1sc(=NN=C(C)c2c(O)c3ccccc3oc2=O)[nH]c1C  selectivity index (HepG2; cell growth, MTT; reference: IC50 BJ-1 over HepG2): > 1.75

Some of these lines once more:
CCn1c(C)c(N=Nc2ccc(C)cc2)sc1=NN=C(C)c1c(O)c2ccccc2oc1=O  selectivity index (HepG2; cell growth, MTT; reference: IC50 BJ-1 over HepG2): > 1.22
CCOC(=O)c1cccc(NC(=O)c2sccc2S(=O)(=O)N(C)c2ccc(OCC)c(OCC)c2)c1  EC50 (HepG2; SRE promoter reporter, activator, luciferase reporter): > 25 µM
COc1ccc(-n2nc(C(C)=O)s/c2=N\N=C(/C)c2ccc(NC(=O)c3ccc(Cl)cc3)cc2)cc1  toxicity (HepG2; 0.312 µM): 85.9%
